Measured values from different studies.
Protocols differ between the studies behind these lines. Several values in a cell are separate wells, animals, samples, runs or records. ± marks the error that the study gave.
Oprd1: Delta-type opioid receptor (Oprd1, Rattus norvegicus, UniProt P33533)
UniProt P33533, sequence (whole entry, looked up): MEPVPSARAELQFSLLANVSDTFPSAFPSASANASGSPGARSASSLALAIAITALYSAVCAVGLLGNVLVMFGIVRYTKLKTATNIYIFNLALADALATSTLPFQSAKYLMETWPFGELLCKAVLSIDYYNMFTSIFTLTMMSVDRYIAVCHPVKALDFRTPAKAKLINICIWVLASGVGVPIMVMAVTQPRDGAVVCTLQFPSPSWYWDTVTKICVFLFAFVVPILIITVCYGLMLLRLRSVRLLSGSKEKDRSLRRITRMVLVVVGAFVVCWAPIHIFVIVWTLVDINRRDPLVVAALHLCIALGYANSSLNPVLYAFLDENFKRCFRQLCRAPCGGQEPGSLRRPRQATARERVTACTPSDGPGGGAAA
ULK2: Serine/threonine-protein kinase ULK2 (ULK2, Homo sapiens, UniProt Q8IYT8)
UniProt Q007T0, sequence (whole entry, looked up): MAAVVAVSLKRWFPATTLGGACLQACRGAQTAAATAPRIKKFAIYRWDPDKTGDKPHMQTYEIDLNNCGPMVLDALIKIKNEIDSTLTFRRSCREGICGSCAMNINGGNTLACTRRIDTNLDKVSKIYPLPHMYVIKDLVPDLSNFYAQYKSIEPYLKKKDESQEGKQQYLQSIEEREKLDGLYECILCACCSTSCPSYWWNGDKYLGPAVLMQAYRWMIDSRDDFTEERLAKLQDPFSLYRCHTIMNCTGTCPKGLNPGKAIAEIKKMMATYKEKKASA
UniProt A5GZW8, sequence (whole entry, looked up): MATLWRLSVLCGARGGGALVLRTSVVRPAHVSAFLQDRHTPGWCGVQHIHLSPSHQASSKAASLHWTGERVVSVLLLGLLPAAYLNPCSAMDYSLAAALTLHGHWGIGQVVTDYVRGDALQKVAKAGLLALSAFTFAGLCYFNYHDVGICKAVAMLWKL
UniProt D0VWV4, sequence (whole entry, looked up): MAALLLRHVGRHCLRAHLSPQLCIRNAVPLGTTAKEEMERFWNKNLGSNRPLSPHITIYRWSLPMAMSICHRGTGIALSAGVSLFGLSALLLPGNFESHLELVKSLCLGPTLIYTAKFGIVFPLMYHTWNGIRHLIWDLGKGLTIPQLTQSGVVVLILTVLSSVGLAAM
UniProt Q8BVQ5, sequence (whole entry, looked up): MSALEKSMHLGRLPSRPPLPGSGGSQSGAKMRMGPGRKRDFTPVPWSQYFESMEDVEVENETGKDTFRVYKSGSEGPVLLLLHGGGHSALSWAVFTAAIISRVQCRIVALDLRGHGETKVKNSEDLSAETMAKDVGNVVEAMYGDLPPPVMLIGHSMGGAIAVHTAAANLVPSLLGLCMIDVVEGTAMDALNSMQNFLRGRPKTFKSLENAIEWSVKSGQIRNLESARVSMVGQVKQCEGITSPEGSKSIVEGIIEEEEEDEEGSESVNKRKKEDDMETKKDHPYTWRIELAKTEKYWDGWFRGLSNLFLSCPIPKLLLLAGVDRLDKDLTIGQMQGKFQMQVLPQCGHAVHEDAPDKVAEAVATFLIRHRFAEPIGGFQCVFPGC
UniProt Q8IYT8, sequence (whole entry, looked up): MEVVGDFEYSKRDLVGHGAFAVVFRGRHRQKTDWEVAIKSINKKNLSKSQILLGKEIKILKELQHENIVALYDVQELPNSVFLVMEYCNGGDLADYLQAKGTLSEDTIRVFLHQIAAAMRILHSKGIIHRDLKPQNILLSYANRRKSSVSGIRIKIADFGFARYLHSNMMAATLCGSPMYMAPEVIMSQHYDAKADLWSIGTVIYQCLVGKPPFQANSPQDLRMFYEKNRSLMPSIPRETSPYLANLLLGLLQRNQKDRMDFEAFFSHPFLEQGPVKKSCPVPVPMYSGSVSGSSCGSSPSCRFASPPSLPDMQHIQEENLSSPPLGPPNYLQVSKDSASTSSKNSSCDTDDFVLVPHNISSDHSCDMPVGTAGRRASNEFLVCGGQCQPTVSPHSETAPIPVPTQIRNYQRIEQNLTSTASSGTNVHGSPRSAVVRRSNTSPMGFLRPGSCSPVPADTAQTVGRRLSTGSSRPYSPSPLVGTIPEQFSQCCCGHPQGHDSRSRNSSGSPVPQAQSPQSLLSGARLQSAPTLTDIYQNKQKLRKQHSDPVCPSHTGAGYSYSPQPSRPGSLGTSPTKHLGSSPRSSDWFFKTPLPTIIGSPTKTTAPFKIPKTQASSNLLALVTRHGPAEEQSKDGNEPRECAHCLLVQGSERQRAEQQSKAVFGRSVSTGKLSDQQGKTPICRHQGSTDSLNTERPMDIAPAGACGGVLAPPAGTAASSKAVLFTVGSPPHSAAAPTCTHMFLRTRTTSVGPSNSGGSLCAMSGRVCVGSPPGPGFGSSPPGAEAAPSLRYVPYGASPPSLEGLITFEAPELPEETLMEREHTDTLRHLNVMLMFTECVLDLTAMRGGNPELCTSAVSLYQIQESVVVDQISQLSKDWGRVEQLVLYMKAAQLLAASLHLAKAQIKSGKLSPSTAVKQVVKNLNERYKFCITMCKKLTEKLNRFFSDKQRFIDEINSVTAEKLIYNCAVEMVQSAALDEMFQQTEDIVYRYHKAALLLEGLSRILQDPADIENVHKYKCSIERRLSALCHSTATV
UniProt Q6DWJ6, sequence (whole entry, looked up): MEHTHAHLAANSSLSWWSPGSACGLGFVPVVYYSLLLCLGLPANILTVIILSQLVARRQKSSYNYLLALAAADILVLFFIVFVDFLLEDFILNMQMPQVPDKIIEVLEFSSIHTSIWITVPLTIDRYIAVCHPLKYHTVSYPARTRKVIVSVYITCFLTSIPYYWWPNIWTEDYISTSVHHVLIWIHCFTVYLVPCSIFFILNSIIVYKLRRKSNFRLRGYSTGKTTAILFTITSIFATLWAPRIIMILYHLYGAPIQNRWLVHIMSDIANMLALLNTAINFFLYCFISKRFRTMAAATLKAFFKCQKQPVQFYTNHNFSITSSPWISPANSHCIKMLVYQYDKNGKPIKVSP
UniProt P08238, sequence (whole entry, looked up): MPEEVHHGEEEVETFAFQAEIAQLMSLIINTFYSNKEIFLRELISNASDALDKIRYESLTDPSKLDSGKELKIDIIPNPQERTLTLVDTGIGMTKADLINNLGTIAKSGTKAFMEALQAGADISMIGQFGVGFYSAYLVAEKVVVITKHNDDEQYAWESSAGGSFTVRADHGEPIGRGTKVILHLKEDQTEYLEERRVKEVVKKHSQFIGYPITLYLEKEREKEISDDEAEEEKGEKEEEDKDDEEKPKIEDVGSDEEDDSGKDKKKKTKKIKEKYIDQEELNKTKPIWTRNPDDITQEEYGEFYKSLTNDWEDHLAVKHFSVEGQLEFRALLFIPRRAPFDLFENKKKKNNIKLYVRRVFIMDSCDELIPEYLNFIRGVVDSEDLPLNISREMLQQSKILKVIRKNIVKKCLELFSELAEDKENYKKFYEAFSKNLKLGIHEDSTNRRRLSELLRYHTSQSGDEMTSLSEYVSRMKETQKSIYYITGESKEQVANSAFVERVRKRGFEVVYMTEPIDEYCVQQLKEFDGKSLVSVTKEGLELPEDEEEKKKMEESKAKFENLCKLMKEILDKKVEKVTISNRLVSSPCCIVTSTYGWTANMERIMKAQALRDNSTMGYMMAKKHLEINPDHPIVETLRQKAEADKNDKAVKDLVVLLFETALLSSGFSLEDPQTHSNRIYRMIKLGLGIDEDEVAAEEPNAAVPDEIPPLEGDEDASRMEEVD
UniProt P35354, sequence (whole entry, looked up): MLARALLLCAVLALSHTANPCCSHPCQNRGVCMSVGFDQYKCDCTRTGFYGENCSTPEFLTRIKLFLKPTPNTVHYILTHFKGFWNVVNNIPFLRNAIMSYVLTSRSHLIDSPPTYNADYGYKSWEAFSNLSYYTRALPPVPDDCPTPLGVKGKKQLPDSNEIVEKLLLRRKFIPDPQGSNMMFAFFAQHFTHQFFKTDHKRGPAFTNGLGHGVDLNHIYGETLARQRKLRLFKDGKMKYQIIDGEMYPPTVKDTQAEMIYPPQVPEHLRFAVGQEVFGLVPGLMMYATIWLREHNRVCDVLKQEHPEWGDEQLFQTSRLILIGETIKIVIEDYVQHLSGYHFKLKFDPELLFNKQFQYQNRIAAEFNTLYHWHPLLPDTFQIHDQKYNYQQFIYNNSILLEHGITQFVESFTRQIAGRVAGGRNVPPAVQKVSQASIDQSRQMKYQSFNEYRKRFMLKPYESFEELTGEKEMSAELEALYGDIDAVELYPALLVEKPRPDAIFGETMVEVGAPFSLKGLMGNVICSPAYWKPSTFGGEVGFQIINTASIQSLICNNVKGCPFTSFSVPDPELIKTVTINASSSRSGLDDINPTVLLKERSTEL
UniProt P0A988, sequence (whole entry, unmodified, looked up): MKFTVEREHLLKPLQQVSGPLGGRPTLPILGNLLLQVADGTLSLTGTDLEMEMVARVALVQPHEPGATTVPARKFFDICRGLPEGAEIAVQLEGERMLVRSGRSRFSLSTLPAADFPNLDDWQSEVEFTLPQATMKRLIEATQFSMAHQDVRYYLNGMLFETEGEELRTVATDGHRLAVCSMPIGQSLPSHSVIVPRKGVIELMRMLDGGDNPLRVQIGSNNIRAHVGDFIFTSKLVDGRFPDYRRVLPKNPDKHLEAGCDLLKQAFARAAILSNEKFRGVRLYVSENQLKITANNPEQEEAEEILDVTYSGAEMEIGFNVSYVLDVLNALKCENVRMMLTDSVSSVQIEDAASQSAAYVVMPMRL
UniProt Q13163, sequence (whole entry, looked up): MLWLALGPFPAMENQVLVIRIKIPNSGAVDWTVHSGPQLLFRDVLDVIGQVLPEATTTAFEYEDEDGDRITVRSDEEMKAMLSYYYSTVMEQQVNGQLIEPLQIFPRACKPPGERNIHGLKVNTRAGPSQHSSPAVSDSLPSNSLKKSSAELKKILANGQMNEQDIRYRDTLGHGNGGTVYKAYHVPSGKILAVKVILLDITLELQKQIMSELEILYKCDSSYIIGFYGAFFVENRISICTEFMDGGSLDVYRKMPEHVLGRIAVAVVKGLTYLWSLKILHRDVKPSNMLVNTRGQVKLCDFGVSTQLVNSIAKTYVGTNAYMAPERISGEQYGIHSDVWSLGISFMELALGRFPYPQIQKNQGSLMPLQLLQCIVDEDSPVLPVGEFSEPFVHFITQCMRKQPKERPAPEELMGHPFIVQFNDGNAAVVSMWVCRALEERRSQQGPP

The activation of `C/C(=N\OCCCN1CCCCC1)c1ccc(C(F)(F)F)cc1` is reported as -0.51% (Androgen receptor (AR, Homo sapiens, UniProt P10275); reporter gene, agonist, luciferase reporter; 10 µM).
The reactivity ratio of `C#CCCCCOc1ccc2c(c1)CCCN2C(=O)CCl` is reported as 0.93 (ECE1 (Homo sapiens, UniProt P42892); mass spectrometry profiling; H460 cell lysate; 100 µM over 10 µM, UniProt P42892; baseline: high over low concentration).
For `CCCCC/C=C\C/C=C\C/C=C\C/C=C\CCCC(=O)NCCc1ccc(O)c(O)c1`, “maximal open probability” read 0.88 ± 0.11 (Trpv1 (Mus musculus, UniProt Q704Y3, N552L); ion current, agonist, whole-cell patch clamp; N552L; baseline: 3 mM 2-APB).
`CC(C)CC(O)(CC(C)C)c1cn(C(=O)N2CCCC2)nn1`: “SILAC activity ratio” 1.17 and 1.23 and 0.97 and 1.05 and 1.14 and 1.04 (Protein phosphatase methylesterase 1 (Mus musculus, UniProt Q8BVQ5); probe labelling, inhibitor, competitive ABPP-SILAC, refers to: Ppme1; mouse T cells; concentration not given, 4 h, single peptide; baseline: treated over DMSO cells, lower = stronger inhibition).
With `O=C1NC2(CC2)COc2ncc(F)cc2[C@H]2COCCN2c2ccn3ncc1c3n2` the organ weight was 12.1 ± 1.88 g (Sprague-Dawley rat, female, liver; oral, 10 mg/kg/day, 4 weeks).
With `CN(C)CCCSC(=S)N1CCN(C(=O)/C=C/c2coc3ccccc3c2=O)CC1` the MST response was 844 a.u. (Nucleoprotein (N, Tomato spotted wilt virus, UniProt P25999, R94A); binding, microscale thermophoresis; 62.5 µM; dose series).
For `CC[C@@H](C)[C@@H]1CN([C@@H](CC2CCCCC2)CN2CCC[C@H]2CN2CCNC[C@@H]2Cc2ccc3ccccc3c2)CCN1CCC12CC3CC(CC(C3)C1)C2`, the remaining binding was 91.1% (Oprd1; radioligand binding; rat brain membranes; 500 nM, pH 7.5, 25 °C, added: 2 nM [3H]DPDPE).
With `CN(C)[C@H]1C[C@@]23CC[C@@]4(O2)C(=CC[C@]2(C)[C@@H](c5ccc6ccncc6c5)CC[C@H]24)C=C3[C@@H](O)[C@@H]1O` the inhibition was -8.1% (IKBKB (Homo sapiens, UniProt O14920); ATP probe labelling, inhibitor, KiNativ profiling; 1 µM).
`N[C@H](C(=O)N1CCCC1)C1CCN(c2nccc3c(-c4ncc(Cl)cc4Cl)cccc23)CC1` has a kcat of 0.0194 s⁻¹ (PADI1 (Homo sapiens, UniProt Q9ULC6); enzyme activity; 3.84 µM, added: Ca2+ 0.25 mM).
For `CC(O)C1CN(C(Cc2ccc3ccccc3c2)CN2CCCC2CN2CCNCC2CO)CCN1CCCC1CCCC1` (stereo not shown), the remaining binding was 92% (Oprd1; radioligand binding; rat brain membranes; 500 nM, pH 7.5, 25 °C, added: 2 nM [3H]DPDPE).
`CC[C@H](C)[C@H](NC(=O)[C@H](CCCNC(=N)N)NC(=O)[C@H](CCCNC(=N)N)NC(=O)[C@H](CC(C)C)NC(=O)[C@H](Cc1ccccc1)NC(=O)CNC(=O)CNC(=O)[C@@H](N)Cc1ccc(O)cc1)C(=O)N[C@@H](CCCNC(=N)N)C(=O)N1CCC[C@H]1C(=O)N[C@@H](CCCCN)C(=O)N[C@@H](CC(C)C)C(=O)N[C@@H](CCCCN)C(=O)O` gave an Emax of 52.7% and 47.3% (GPR139 (Homo sapiens, UniProt Q6DWJ6); Gαi3 activation, agonist, BRET; HEK293T/17; 40 µM).
For `CC[C@@H](C)[C@@H](NC(=O)[C@@H](CCC(N)=O)NC(=O)[C@H](NC(=O)[C@H]1CCCN1C(=O)[C@H](NC(=O)[C@@H](CO)NC(=O)[C@@H](Cc1ccccc1)NC(=O)[C@H]1CCCN1C(=O)[C@@H](CCC(N)=O)NC(=O)[C@H](N)CCSC)[C@H](C)CC)C(C)C)C(=O)N[C@@H](C(=O)N[C@H](CC(C)C)C(=O)N[C@H](CCC(N)=O)C(=O)NCC(=O)N[C@H](CO)C(=O)N[C@H](CCCNC(=N)N)C(=O)N[C@H](CCCNC(=N)N)C(=O)N[C@H](CCCNC(=N)N)C(=O)N[C@H](CCC(N)=O)C(=O)NCC(=O)N[C@H](CCCNC(=N)N)C(N)=O)[C@H](C)O`, the Hill coefficient was 0.88 (Kcnma1 (Mus musculus, UniProt Q08460); ion current, blocker, inside-out patch clamp; Xenopus oocytes; +120 mV, added: 10 µM cytosolic Ca2+).
`O=C1NC(=O)c2c1c1cc(F)c[n+]3c1c1c2c2cc(O)ccc2[n]1[Ru-4]312([N]=C=S)[S+]3CC[S+]1CC[S+]2CC3` (stereo not shown) has a remaining activity of 102% (ULK2; enzyme activity; 100 nM, human enzyme, added: 10 µM ATP; baseline: untreated).
`CC(=O)N[C@@H](CCC(N)=O)C(=O)N[C@@H](CC1CCCCC1)C(=O)N[C@@H](CNC(=O)CCl)C(=O)N[C@@H](CC(C)C)C(=O)N[C@@H](Cc1ccccc1)C(=O)O` gave a -TΔS of 1.2 kcal/mol (Beta sliding clamp (Escherichia coli, UniProt P0A988, H175G); isothermal titration calorimetry; 25 °C).
`CCCCC[C@@H]1OC(=O)[C@@H](C)N(C)C(=O)[C@H](CCCCC)OC(=O)[C@@H](C)N(C)C(=O)[C@H](CCCCC)OC(=O)[C@@H](C)N(C)C(=O)[C@H](CCCCC)OC(=O)[C@@H](C)N(C)C1=O`: “Ca2+ spark frequency” “decreased” (Ryr2 (Mus musculus, UniProt E9Q401); permeabilized ventricular cardiomyocytes, C57BL/6J mice; 25 µM, 15 min; baseline: vehicle).
`CCOC(=O)[C@@H]1Cc2c(cc([N+](=O)[O-])cc2[N+](=O)[O-])[C@H](O)[C@]12C(=O)Nc1ccc(Br)cc12` gave a remaining binding of 100% (ULK2; binding, competition with immobilised ligand; 0.1 µM).
`CCCc1cc2cc(-n3c4c(c5ccccc53)C(=O)CC(C)(C)C4)cc(N3CCC(O)CC3)c2c(=O)[nH]1` has a selectivity ratio of greater than 17 fold (HSP90AB1 (Homo sapiens, UniProt P08238); fluorescence polarization; baseline: apparent KD Hsp90α over apparent KD HSP90AB1).
`Cc1cc(Cl)ccc1OC(C)C(=O)N1CCc2ccccc21` (stereo not shown) gave an IC50 ratio of 0.1 (PFF0160c (Plasmodium falciparum, UniProt Q08210, E182D); enzyme activity, DCIP colorimetric; baseline: E182D mutant over wild type).
The remaining binding of `Oc1ccc(C[C@@H]2CN([C@@H](CC3CCCCC3)CN3CCC[C@H]3CN3CCNC[C@@H]3Cc3ccc4ccccc4c3)CCN2CCCC2CCCC2)cc1` is reported as 93.3% (Oprd1; radioligand binding; rat brain membranes; 500 nM, pH 7.5, 25 °C, added: 2 nM [3H]DPDPE).
For `CC(C)[C@H]1NC(=O)C[C@H]2/C=C/CCSSC[C@@H](NC1=O)C(=O)N[C@H](Cc1cccc3ccccc13)C(=O)NCC(=O)O2`, the inhibition was 2.5% (MAP2K5 (Homo sapiens, UniProt Q13163); 10 µM).
Under “reaction rate reduction”, `C=C(c1ccccc1)[C@H](N)P(=O)(O)O` is recorded as 53% (Phenylalanine/tyrosine ammonia-lyase (PAL, Rhodotorula toruloides, UniProt P11544); inhibitor; 50 µM, added: L-Phe 5 mM).
`O=C(CF)N[C@H]1[C@H]([C@H](O)[C@H](O)CNC(=O)c2ccc(-c3ccccc3)cc2)O[C@@](OCc2cccc(Cl)c2Cl)(C(=O)O)C[C@@H]1O` gave a ΔH of -11.7 ± 0.18 kcal/mol (CD22 (Homo sapiens, UniProt P20273); isothermal titration calorimetry).
For `OB(O)c1cnn(-c2cccc(Cl)c2)c1`, the selectivity ratio was 3450 (Trypsin (Sus scrofa, UniProt P00761); baseline: Ki trypsin over Ki AmpC).
For `C[C@@H]1NC(=O)[C@H](CCCNC(=N)N)NC(=O)[C@H](Cc2ccc3ccccc3c2)NC(=O)[C@H]2CCCCN2C(=O)[C@@H]([C@H](C)O)NC(=O)[C@H](Cc2ccc(F)cc2)NC(=O)[C@@H](Cc2ccc(F)cc2)NC(=O)c2cc3cc(c2)C(=O)NC[C@H](NC(=O)[C@@H](Cc2ccccc2)NC1=O)C(=O)N[C@@H](Cc1ccccc1)C(=O)N[C@@H](Cc1ccc2ccccc2c1)C(=O)N[C@@H](CCCNC(=N)N)C(=O)N[C@@H](CCCNC(=N)N)C(=O)N[C@@H](CCCNC(=N)N)C(=O)N[C@@H](CCCNC(=N)N)C(=O)N[C@H](C(=O)N[C@@H](CCCCN)C(N)=O)CNC3=O`, isomerase activity read “no effect” (FKBP1A (Homo sapiens, UniProt P62942); inhibitor; up to 5 µM, added: Suc-Ala-Glu-Pro-Phe-pNA).
For `CON(C(=O)c1cn(C)nc1C(F)F)C(C)Cc1c(Cl)cc(Cl)cc1Cl` (stereo not shown), the reaction velocity was 0.00731 µM/s and 0.00697 µM/s and 0.00634 µM/s (SDHD/SDHC/SDHB (Sus scrofa, UniProt A5GZW8+D0VWV4+Q007T0); enzyme activity, inhibitor, DCIP reduction; pig; 0.3 µM, added: DCIP 40 µM).
With `CCc1nnc(-c2c(OC)cc(-c3cnc4cc(-c5cnn(C)c5)ccn34)cc2OC)o1` the remaining binding was 93.9% (PTGS2 (Homo sapiens, UniProt P35354); radioligand binding; 10 µM, SafetyScreen44 replicate 2; lower = stronger displacement).
`Cc1cc(Nc2nc(C[C@@]3(C(=O)O)CCN(Cc4cccc(Cl)c4F)[C@H](C)C3)cc(C)c2F)[nH]n1` has an activation of -0.03% (HRH1 (Homo sapiens, UniProt P35367); agonist; 10 µM).
The inhibition of `CS(C)(=O)=Nc1ccc(-c2ccc(-c3nc4cc(O[C@@H]5CO[C@H]6[C@@H]5OC[C@H]6O)[nH]c4cc3F)cc2)cc1` is reported as -8% (PTK2B (Homo sapiens, UniProt Q14289); enzyme activity, inhibitor; 10 µM).
